{"data": "Measurements of several laboratories", "T1": "DNA aptamer; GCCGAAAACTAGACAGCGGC", "note": "Lines come from different studies, so protocols differ. ± gives the spread as reported.", "UniProt Q04609, sequence (whole entry, looked up)": "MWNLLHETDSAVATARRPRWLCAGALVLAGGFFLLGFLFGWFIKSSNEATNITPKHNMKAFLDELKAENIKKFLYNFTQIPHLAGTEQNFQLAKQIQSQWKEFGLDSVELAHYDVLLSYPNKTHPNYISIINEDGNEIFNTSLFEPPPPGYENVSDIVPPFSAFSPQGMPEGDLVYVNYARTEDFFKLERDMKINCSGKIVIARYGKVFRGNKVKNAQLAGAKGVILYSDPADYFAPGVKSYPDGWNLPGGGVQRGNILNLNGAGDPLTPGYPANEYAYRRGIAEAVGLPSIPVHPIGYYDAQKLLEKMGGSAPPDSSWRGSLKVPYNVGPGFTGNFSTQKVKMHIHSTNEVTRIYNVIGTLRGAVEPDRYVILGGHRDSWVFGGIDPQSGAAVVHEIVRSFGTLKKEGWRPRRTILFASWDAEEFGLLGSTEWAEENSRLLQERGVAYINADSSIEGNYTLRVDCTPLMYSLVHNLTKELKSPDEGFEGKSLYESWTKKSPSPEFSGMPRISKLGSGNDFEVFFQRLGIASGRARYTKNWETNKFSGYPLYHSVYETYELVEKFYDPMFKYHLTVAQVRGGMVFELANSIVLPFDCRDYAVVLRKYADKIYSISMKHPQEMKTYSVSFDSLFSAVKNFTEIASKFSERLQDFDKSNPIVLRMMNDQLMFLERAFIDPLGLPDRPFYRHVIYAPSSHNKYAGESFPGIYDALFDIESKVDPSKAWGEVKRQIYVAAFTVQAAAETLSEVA", "UniProt P53341, sequence (whole entry, looked up)": "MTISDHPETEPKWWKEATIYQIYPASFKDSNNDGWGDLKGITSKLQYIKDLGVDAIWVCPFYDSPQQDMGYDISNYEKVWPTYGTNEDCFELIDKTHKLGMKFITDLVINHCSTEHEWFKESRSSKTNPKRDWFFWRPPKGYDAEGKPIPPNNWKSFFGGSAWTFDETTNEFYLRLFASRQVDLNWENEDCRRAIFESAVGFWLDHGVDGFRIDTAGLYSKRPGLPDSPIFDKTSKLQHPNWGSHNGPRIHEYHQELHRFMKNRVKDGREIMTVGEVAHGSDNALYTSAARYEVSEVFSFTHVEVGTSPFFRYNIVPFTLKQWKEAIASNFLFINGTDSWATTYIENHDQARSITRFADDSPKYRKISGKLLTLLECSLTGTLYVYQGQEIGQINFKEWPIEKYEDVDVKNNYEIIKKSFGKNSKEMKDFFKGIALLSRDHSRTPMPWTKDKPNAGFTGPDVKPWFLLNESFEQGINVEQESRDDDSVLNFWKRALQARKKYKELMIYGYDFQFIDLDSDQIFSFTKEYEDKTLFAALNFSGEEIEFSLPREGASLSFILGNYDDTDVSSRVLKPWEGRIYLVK", "UniProt P03951, sequence (whole entry, looked up)": "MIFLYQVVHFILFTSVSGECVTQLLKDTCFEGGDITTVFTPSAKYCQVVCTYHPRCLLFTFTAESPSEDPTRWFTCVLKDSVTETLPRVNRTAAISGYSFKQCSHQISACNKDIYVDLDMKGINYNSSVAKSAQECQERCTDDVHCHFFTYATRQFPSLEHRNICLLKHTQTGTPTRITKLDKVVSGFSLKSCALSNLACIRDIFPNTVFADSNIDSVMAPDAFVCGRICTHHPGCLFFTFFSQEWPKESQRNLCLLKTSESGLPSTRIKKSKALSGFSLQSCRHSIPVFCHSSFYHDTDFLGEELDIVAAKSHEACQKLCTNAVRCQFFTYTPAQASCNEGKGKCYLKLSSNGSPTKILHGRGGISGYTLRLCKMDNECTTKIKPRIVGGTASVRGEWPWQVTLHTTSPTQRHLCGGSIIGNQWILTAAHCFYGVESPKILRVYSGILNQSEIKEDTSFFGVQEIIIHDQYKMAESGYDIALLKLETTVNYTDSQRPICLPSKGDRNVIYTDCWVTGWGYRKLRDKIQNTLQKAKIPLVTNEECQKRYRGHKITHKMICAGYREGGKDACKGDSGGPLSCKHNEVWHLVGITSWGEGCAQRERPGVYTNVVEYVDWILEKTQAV", "UniProt P03372, sequence (whole entry, looked up)": "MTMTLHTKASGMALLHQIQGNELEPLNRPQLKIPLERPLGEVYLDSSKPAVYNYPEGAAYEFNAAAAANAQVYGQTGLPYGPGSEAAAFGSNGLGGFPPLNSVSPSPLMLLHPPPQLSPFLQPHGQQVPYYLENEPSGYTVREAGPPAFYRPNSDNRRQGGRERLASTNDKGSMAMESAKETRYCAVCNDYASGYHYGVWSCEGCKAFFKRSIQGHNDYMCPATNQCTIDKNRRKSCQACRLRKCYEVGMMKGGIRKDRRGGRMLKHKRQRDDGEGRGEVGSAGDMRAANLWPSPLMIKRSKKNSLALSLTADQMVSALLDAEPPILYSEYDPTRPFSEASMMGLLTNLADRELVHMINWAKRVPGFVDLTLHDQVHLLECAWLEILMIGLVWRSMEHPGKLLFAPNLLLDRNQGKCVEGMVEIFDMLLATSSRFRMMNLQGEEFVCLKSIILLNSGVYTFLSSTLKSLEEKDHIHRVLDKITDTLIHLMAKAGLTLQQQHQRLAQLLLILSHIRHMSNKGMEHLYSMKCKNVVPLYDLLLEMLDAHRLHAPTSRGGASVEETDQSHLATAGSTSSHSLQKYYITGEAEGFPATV", "UniProt P31266, sequence (whole entry, unmodified, looked up)": "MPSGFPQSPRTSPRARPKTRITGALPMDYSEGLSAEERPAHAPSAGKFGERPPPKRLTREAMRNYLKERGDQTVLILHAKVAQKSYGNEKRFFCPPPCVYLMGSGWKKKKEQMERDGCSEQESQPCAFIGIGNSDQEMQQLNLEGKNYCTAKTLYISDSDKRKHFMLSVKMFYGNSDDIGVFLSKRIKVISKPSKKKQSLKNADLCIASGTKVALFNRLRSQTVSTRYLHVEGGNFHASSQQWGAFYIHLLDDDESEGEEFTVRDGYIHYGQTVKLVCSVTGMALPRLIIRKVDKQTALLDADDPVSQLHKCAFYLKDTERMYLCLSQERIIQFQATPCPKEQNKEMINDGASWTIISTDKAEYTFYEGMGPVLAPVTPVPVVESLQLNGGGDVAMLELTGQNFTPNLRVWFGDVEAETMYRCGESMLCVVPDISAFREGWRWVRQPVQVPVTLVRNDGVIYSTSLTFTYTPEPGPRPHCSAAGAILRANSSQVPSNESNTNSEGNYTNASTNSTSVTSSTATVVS", "UniProt P16442, sequence (whole entry, unmodified, looked up)": "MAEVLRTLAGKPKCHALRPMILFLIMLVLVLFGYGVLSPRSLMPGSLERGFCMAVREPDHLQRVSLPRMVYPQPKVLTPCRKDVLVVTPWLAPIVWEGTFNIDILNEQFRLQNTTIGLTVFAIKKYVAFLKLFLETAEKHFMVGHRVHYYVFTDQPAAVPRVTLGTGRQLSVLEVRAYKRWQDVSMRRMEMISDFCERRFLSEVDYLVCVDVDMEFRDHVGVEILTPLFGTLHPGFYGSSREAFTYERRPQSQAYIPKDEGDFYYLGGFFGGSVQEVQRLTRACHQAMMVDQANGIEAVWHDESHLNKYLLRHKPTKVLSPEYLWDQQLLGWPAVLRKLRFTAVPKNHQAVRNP", "UniProt P30542, sequence (whole entry, looked up)": "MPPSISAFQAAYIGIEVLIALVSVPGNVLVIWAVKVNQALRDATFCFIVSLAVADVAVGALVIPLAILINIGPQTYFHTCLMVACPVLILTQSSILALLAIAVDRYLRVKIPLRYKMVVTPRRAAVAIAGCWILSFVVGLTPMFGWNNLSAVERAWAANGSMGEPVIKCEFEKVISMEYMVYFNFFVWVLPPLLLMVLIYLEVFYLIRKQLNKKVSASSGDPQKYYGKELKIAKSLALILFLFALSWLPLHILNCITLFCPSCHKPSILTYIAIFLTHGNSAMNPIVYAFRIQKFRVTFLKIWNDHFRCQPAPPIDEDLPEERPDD", "UniProt P00433, sequence (whole entry, looked up)": "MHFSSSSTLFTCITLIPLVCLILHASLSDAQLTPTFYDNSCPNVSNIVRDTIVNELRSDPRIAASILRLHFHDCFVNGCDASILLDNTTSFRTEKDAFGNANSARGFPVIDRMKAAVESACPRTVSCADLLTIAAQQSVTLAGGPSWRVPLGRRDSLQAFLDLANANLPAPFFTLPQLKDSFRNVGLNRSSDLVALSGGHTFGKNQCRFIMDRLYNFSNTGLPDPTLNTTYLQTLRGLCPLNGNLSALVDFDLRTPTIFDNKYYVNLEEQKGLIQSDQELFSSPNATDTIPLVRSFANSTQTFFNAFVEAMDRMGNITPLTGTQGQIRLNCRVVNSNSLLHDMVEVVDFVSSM", "UniProt P05067, sequence (whole entry, looked up)": "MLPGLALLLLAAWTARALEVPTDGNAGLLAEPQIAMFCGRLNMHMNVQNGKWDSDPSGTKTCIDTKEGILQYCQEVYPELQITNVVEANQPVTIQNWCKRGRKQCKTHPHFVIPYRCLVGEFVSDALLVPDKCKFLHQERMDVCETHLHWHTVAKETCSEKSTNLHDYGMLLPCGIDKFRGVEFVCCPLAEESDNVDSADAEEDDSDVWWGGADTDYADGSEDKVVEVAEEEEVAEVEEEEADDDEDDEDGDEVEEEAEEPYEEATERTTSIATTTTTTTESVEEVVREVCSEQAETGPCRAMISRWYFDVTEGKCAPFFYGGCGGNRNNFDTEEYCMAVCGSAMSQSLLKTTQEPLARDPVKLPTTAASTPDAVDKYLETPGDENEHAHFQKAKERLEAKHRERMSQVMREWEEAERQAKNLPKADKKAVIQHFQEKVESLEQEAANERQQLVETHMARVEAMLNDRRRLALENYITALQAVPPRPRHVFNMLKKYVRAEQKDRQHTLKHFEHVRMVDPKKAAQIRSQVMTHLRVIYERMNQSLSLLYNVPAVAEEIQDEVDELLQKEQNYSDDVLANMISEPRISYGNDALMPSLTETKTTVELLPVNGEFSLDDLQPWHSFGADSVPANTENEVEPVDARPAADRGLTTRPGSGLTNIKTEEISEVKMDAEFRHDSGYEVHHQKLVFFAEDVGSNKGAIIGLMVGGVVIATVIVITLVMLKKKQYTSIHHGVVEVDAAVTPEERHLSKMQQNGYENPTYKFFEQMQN"}
{"Structure (SMILES)": "C=C1C(=O)O[C@@H]2[C@H]3C(CO)=CC(=O)C3=C(C)C[C@H](O)[C@@H]12", "target": "MAL12 (Saccharomyces cerevisiae S288c, UniProt P53341)", "assay": "fluorescence quenching", "setting": "298 K", "measurement": "quenching rate constant Kq", "value": "6.63e+11 L/mol/s"}
{"Structure (SMILES)": "CCCCC[C@H](O)/C=C/[C@H]1[C@H](O)CC(=O)[C@@H]1C/C=C\\CCCC(=O)O", "target": "SLCO2A1 (Homo sapiens, UniProt Q92959, W565F)", "assay": "cellular uptake", "test system": "HEK293F", "setting": "concentration not given", "how to read": "reference: wild-type transporter", "measurement": "inhibition of transport", "value": "increased"}
{"Structure (SMILES)": "CCCCCCCCO[C@@H]1O[C@H](CO)[C@H](O)C[C@H]1O[C@@H]1O[C@@H](C)[C@@H](O)[C@@H](O)[C@@H]1O", "target": "ABO (Homo sapiens, UniProt P16442, G235S/G268A/L266M/R176G)", "assay": "methyl-TROSY NMR titration lineshape analysis", "setting": "apo enzyme", "measurement": "koff", "value": "3300 ± 200 s⁻¹"}
{"Structure (SMILES)": "CCC(=C(c1ccc(Cl)cc1)c1ccc(OCCCN(C)C)cc1)c1ccc(OC)cc1", "target": "Estrogen receptor (ESR1, Homo sapiens, UniProt P03372)", "assay": "reporter gene, agonist, yeast estrogen screen", "setting": "1 µM", "how to read": "reference: DMSO", "measurement": "fold activation", "value": "3.32 ± 0.29 fold"}
{"Structure (SMILES)": "N#Cc1c(N)nc(SCc2ncc[nH]2)c(C#N)c1-c1cccc(O)c1", "target": "ADORA1 (Homo sapiens, UniProt P30542)", "assay": "cAMP, agonist", "measurement": "Emax", "value": "102%"}
{"Structure (SMILES)": "[11CH3]Nc1ccc(-c2nc3ccc(O)cc3o2)cn1", "target": "APP (Homo sapiens, UniProt P05067)", "assay": "binding, PET, reference Logan", "test system": "Alzheimer's disease patients, posterior cingulate cortex", "how to read": "reference: cerebellum", "measurement": "distribution volume ratio", "value": "1.8 ± 0.18"}
{"Structure (SMILES)": "C[C@H](Cn1cnc2c(N)ncnc21)OCP(=O)(O)O", "target": "T1, DNA aptamer", "assay": "interferometric free solution assay", "setting": "2 h, 22 °C, NaCl 150 mM, single-site fit", "measurement": "Kd", "value": "6.64 nM"}
{"Structure (SMILES)": "Cc1ccc(C(=O)Nc2ccc(CP(=O)(O)O)cc2CP(=O)(O)O)cc1NC(=O)c1cccc(NC(=O)Nc2cccc(C(=O)Nc3cc(C(=O)Nc4ccc(CP(=O)(O)O)cc4CP(=O)(O)O)ccc3C)c2)c1", "target": "F11 (Homo sapiens, UniProt P03951)", "assay": "enzyme activity, inhibitor", "setting": "50 µM, with: S-2366 substrate", "measurement": "Km", "value": "290 ± 50 µM"}
{"Structure (SMILES)": "CSCC[C@H](NC(=O)[C@H](Cc1c[nH]c2ccccc12)NC(=O)[C@@H](NC(=O)[C@@H](NC(=O)[C@@H](NC(=O)[C@H](C)NC(=O)[C@@H](NC(=O)[C@H](C)NC(=O)[C@H](CCCCN)NC(=O)[C@H](CCCCN)NC(=O)[C@@H](NC(=O)[C@H](CC(N)=O)NC(=O)[C@H](CCC(=O)O)NC(=O)[C@@H](N)CCSC)C(C)C)[C@@H](C)O)[C@@H](C)O)[C@@H](C)O)[C@@H](C)O)C(=O)N[C@H](C(=O)N1CCC[C@H]1C(=O)N[C@H](C(=O)N[C@@H](CCCNC(=N)N)C(=O)N[C@@H](CCC(N)=O)C(=O)O)[C@@H](C)O)C(C)C", "target": "Recombining binding protein suppressor of hairless (Rbpj, Mus musculus, UniProt P31266)", "assay": "isothermal titration calorimetry", "setting": "pH 6.5, 25 °C", "measurement": "ΔG°", "value": "-7.9 ± 0.1 kcal/mol"}
{"Structure (SMILES)": "O=C1c2ccc(O)cc2OC2c3cc(-c4coc5cc(O)ccc5c4=O)ccc3OC12c1ccc(O)cc1 (stereo not drawn)", "target": "PRXC1A (Armoracia rusticana, UniProt P00433)", "assay": "oxidation, substrate", "measurement": "Vmax", "value": "15.1 ± 1.2 µmol/min/mg"}
{"Structure (SMILES)": "O=C([O-])CN(CCN(CC(=O)[O-])Cc1cc(CCC(=O)NCCCCCC(=O)NCCCC[C@H](NC(=O)N[C@@H](CCC(=O)O)C(=O)O)C(=O)O)ccc1O)Cc1cc(CCC(=O)O)ccc1[O-].[68Ga+3]", "target": "FOLH1 (Homo sapiens, UniProt Q04609)", "assay": "PET/CT", "test system": "human, primary prostate lesion", "measurement": "SUVmax", "value": "~35.3"}
{"Structure (SMILES)": "CCCC[C@H](NC(C)=O)C(=O)N[C@@H](CO)C(=O)N[C@H](C(=O)N1CCC[C@H]1C(=O)N[C@]1(C)CCCCCCC=CCCC[C@@](C)(C(=O)N[C@@H](Cc2ccccc2)C(=O)N[C@@H](CCCCN)C(=O)N[C@@H](CCCNC(=N)N)C(=O)N[C@@H](CC(C)C)C(=O)N[C@@H](CCC(N)=O)C(N)=O)NC(=O)[C@H](CCCNC(=N)N)NC(=O)[C@H](CCCC)NC(=O)[C@H](CC(C)C)NC(=O)[C@H](CCCNC(=N)N)NC(=O)[C@H](CCCNC(=N)N)NC(=O)[C@H](CCCNC(=N)N)NC1=O)[C@@H](C)O", "target": "USP7 (Homo sapiens, UniProt Q93009)", "setting": "30 µM, with: USP7 1 µM", "measurement": "p53 deubiquitination", "value": "no effect"}
{"note": "Repeated from above:"}
{"Structure (SMILES)": "O=C([O-])CN(CCN(CC(=O)[O-])Cc1cc(CCC(=O)NCCCCCC(=O)NCCCC[C@H](NC(=O)N[C@@H](CCC(=O)O)C(=O)O)C(=O)O)ccc1O)Cc1cc(CCC(=O)O)ccc1[O-].[68Ga+3]", "target": "FOLH1 (Homo sapiens, UniProt Q04609)", "assay": "PET/CT", "test system": "human, primary prostate lesion", "measurement": "SUVmax", "value": "~35.3"}
